Experimental data gathered from unrelated publications.
Numbered parts are unrelated; each lists some results of a single study.

Set 1
Target: Interferon regulatory factor 5, full length, phosphomimetic (IRF5, Homo sapiens, UniProt Q13568-2, residues 1-514, K96S/S451D/S453D/S456D/S462D)
Technique: protein-binding microarray
Molecule type: double-stranded DNA, one strand shown
Sample: in vitro
Concentration: 250 nM
Notes: 60-bp whole probe
With: salmon DNA 0.4 mg/ml
Relative to: random background probes
Direction: higher = stronger binding
Constant ends, left off below: GCCTAGCAC … GTCTTGATTCGCTTGACGCTGCTG
| Sequence | log fluorescence [z-score] |
| --- | --- |
| GACGATCTCTGACTGGAGACGTGCTAG | -0.295 |
| TTCTGAATGCCCTTCCATCACGTGCTA | -0.0838 |
| GAGGGACTGGACACTGGGGACGTGCTA | -0.458 |
| TAAGATTTCAGACTGGATTAGTGCTAG | 0.339 |
| TTAGGTTTCCTTCTCGTTTAGTGCTAG | 1.1 |
| TTAGGACTGGCGACTGGGTTAGTGCTA | -0.542 |
| GACGGTATCCTAATCCTGACGTGCTAG | -0.0241 |
| CCAGCTCTGATGTTGGGAAAGTGCTAG | -0.486 |
| GACGGTTTCCTTGCCCTGACGTGCTAG | 0.288 |
| ATATGTGTATATATAATATAGTGCTAG | 0.589 |
| TTCGATTTCGGGACTGGATTAGTGCTA | 3.4 |
| CCTTTTATGGTATTTTTTTCGTGCTAG | 0.976 |
| CTTGGGCTCTTCTCTGAAGACGTGCTA | -0.598 |

Set 2
Target: Sal-like protein 4, full length isoform B (SALL4, Homo sapiens, UniProt Q9UJQ4-2, residues 1-616)
Technique: universal PBM
Molecule type: double-stranded DNA, one strand shown
Sample: in vitro
Concentration: not given
Notes: 8-mer, flanks averaged, mean of replicates
Direction: higher = stronger binding
Residues (chain): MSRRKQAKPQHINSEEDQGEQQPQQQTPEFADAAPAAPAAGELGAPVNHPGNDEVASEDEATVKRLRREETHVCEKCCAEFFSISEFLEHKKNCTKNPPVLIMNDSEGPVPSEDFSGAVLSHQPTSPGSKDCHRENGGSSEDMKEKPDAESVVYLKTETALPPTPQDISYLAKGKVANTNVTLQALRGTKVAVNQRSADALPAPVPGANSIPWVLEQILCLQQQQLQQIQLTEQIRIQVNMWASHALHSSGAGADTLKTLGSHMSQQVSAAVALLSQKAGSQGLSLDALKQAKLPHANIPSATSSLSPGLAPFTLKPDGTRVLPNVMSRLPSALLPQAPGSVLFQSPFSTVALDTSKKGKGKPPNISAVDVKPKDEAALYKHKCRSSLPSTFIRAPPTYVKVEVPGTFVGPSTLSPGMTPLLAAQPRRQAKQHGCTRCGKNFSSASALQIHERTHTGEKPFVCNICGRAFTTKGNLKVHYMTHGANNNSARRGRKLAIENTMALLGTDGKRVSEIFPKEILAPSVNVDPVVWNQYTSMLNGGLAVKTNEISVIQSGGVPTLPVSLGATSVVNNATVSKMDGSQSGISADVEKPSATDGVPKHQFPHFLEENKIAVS
| Sequence | E-score |
| --- | --- |
| GATCGCGC | -0.237 |
| TAGAGCTA | -0.0628 |
| CCAAGTGA | -0.0497 |
| ATAGGAGA | 0.0502 |
| CCCCATTC | -0.132 |
| ATTTCCTC | 0.073 |
| CGGCTAAA | 0.00832 |
| CGTTGGAA | -0.0607 |
| ATTAACAC | 0.313 |
| AAGGTCGC | -0.122 |
| AACTTACC | 0.04 |
| ACAAAACA | 0.206 |
| CTTCCTGA | 0.0282 |
| ACGAGCCA | -0.122 |
| AACTAGAC | 0.104 |
| GCAGGTCA | -0.177 |
| AGGAGTAG | -0.00912 |
| AAAATTCT | 0.264 |

Set 3
Target: Ras GTPase-activating protein-binding protein 1, C-terminal RGG region (G3BP1, Homo sapiens, UniProt Q13283)
UniProt Q13283, sequence (whole entry, looked up): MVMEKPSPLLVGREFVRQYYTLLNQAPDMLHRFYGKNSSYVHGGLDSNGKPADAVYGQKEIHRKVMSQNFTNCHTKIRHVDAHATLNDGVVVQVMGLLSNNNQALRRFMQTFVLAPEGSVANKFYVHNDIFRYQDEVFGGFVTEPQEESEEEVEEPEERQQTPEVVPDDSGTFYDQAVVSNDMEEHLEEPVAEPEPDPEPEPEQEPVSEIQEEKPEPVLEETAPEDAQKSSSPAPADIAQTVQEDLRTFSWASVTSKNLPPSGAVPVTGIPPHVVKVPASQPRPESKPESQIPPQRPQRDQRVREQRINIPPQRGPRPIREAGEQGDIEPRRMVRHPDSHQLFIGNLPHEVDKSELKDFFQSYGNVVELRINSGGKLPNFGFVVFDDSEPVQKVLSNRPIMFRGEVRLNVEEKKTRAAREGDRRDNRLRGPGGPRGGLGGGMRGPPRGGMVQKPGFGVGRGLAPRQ
Technique: RNA Bind-n-Seq
Molecule type: RNA
Sample: in vitro
Concentration: 1 µM
Notes: whole 134-nt RNA, ends assumed
With: 150 mM KCl
Relative to: input library
Direction: higher = stronger binding
Constant ends, left off below: GGGAGUUCUACAGUCCGACGAUC … UGGAAUUCUCGGGUGUCAAGG
| Sequence | log2 enrichment |
| --- | --- |
| UGGCCCUGGUGGCAUGCGGGGAGGAAGAGGUGGCCUCAUGGAUCGUGGUGGUCCCGGUGGAAUGUUCAGAGGUGGCCAUGGUGGAGACAG | 2.67 |
| ACCAUGCAGGUGGGCAUCUUUGGCAAGUGGGGCAAGGGGGGGAUAGGGAGGGGGGUAACACUUUGGGAACAGGUGGUCCCAGGUCGUUUC | -1.05 |
| ACCAUGCAGGUGGGCAUCAAAGGGAAGUGGGGCAAGGGGGGGAUAGGGAGGGGGGUAACACUUUGGGAACAGGUGGUCCCAGGUCGUUUC | -1.46 |
| CCUCAAGUCCUGUGCUACACAUCGUAUGUACCGAAUCGGCGGGGCGGGGCGGGAAAGUAUUAUGUUACGCCGUUCGGAUCUGCACUUCCA | 0.647 |
| GCAGGAAGUAAAAACAAAUGGAAAUGCUUCGGAUAGUGGCAGGGGUGGGGGUUGCUAAGGAAAGGGUGGGAUGGGAGUUGGUAAAGAGUU | 2.3 |
| CUGUGCUACACAUCGUAUGUACCGAAUCGGGUUUUUUUGGUUUUUUUGGGGUUUUUUUGGGAAAGUAUUAUGUUACGCCGUUCGGAUCUG | -1.29 |
| AAGUCCUGUGCUACACAUCGUAUGUACCGAAUCAAAUUUAAAUUUUUAAACCCAAAAAAGUAUUAUGUUACGCCGUUCGGAUCUGCACUU | -1.01 |
| GCCCAUGCUAAAGUAAGAUUGUCUAACAAAGUUGAAGCCAUUGAUGUGGAAGAGGCCAAACGCCUCCAUCGGGAAGCUCUGAAGCAGUCU | -1.02 |
| UGGCCCUGGUGGCAUGCGGGGCGGAAGAGGUGGCCUCAUGGAUCGUGGUGGUCCCGGUGGAAUGUUCAGAGGUGGCCGUGGUGGAGACAG | 2.5 |
| AGUCCUGUGCUACACAUCGUAUGUACCGAAUCAAAUUUAAAUUUAAACCCCCCCAAAAAAGUAUUAUGUUACGCCGUUCGGAUCUGCACU | -0.638 |
| UCAAGUCCUGUGCUACACAUCGUAUGUACCGAAUCGGUGGUUUGGAAAAAAAGGAAAGUAUUAUGUUACGCCGUUCGGAUCUGCACUUCC | -1.26 |
| GCAGGAAGUAAAAACAAAUGGAAAUGCUUCGGAUAGUGGCAGGGGUGGGGGUUGCUAAGGAAAGGGUGGGAUGGGAGAGGGUAAAGAGUU | 1.18 |
| GCAGGAAGUAAAAACAAAUGGAAAUGCUUCGGAUAGUGGCAGGGGUGGGGGUUGCUAAGGAAAGGGUGGGAUGGGAGUGGGCAAAGAGUU | 0.859 |
| GCAGGAAGUAAAAACAAAUGGAAAUGCUUCGGAUAGUGGCAGGGGUGGGGGUUGCUAAGAAAAGGGUGGGAUGGGAGUGGGUAAAGAGUU | 1.53 |

Set 4
Target: Histone acetyltransferase KAT6A, winged helix 2, GST fusion (KAT6A, Homo sapiens, UniProt Q92794, residues 85-181)
Technique: protein binding microarray
Molecule type: double-stranded DNA, one strand shown
Sample: in vitro
Concentration: not given
Notes: 8-mer, flanks averaged, mean of 2 arrays, mostly near background
Relative to: not given
Direction: higher = stronger binding
Residues (chain): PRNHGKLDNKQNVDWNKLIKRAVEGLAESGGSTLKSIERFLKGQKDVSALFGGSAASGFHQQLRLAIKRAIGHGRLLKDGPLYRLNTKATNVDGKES
| Sequence | E-score |
| --- | --- |
| CGCGCGCC | 0.23 |
| AGACAATC | 0.0622 |
| CGCGAAAC | -0.0685 |
| GCACCTGC | 0.138 |
| CGTCGGTA | -0.0694 |
| ACCTGTTC | -0.0704 |
| AGAAAGGG | -0.0421 |
| ACCACGGA | -0.274 |
| CCACGGCC | -0.014 |
| CGTTTCCA | -0.148 |
| TCAGCACA | 0.0776 |
| CAAAGAGC | 0.0158 |
| GCCATACA | -0.14 |
| AGCAGGCA | -0.0209 |
| CAGAGTCC | -0.00112 |
| CGGTGGAA | 0.0376 |
| CAGGAAAG | -0.0897 |
| CACGGCAA | -0.045 |
| ATTATCCA | 0.025 |
| AAATCTCA | -0.0917 |
| CTAACCTC | -0.12 |
| CGCACCTC | 0.00739 |
| TCTTGTAA | 0.0206 |
| CTCATATA | -0.191 |

Set 5
Target: RNA binding protein fox-1 homolog 2, RRM domain, GST-SBP tag (RBFOX2, Homo sapiens, UniProt O43251-10, residues 100-194)
Technique: RNA Bind-n-Seq
Molecule type: RNA
Sample: in vitro
Concentration: 365 nM
Notes: natural RNA segment, single round, ends assumed
Relative to: no-protein control
Direction: higher = stronger binding
Constant ends, left off below: GGGAGUUCUACAGUCCGACGAUC … UGGAAUUCUCGGGUGCCAA
Residues (chain): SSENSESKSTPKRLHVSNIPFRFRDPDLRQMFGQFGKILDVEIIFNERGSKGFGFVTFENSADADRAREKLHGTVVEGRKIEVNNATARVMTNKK
| Sequence | RBNS enrichment (R) |
| --- | --- |
| AAUGCCAUUCCCACUUGCCCCAGAGAAGCUACUCGGCCAAACCUAGCCAGGGUCUGUUCUUGUGGACCAGAGCCAGCCUAGUCAUUAUUUGCUGUCGGGUUUCCAGUUUC | 0.193 |
| CACUCCAGCAAACAAAGCAACGGCCCUGCUGGGAUUGUCGAAUCUCCCUUGAGGGUUUCAGGGACCUUGAAAAGGGCAGGAGGACCUGCUGUCUUGCAGUUUUACCCCUG | 0.337 |
| GACUCCGUCCUUGUCUCCUGUAAUAUACUGACCCUGUGUGCAGAGGCGUUUUUGUUCCCUUUUGUUUUUAUUUUUACCUACAUGUACUAUUUACCUUCUGUGUCCUGGCC | 0.445 |
| UUGAUUGGUGUUUCUGAGCAUUCAGACUCCGCACCCUCAUUUCUAAUAAAUGCAACAUUGGACCCGCUUCCCCUUUCUUCAGCGCCUAGGCAGCUGGCCUUGGCUCUACA | 0.661 |
| AUCAUCACAGAUACGCAGUGUUAUGCAUGUGUAUAGAAGUGUGUGCACCAGCAUCAAACAUUGUGUGUGUGGAAGGGAAGAAGCCUGUCCAUUCUAAACGCAGUUGCCAG | 0.892 |
| AAGUUGUAGCCCAGCUGGAGGACAGGCCUUUGCUCCCUGGGCAGGUGCCCACUGGUGUCCCAUGGAAUCCACUCGGGUUGAAAUGUGGAUCUCUCCAUGGGACUCUUUAA | 1.49 |
| UUCCUACUAUAGCAUGAACCCUACAUACGCCACCCUCAGUCUCUCUUGCUUCCUCUUUAACCCGGAGAGGGACUCCCCUGUGGCUAUCCCCCAUCUCUACCAACAAAGUG | 5.34 |
| CUCUGAGCCAAAGCUCUGGGGCCUUGCAUUCCCUGCAUUGGGUUGAUGACUGUCAGCAUCACUGCCGCAGGCCAUGCUUGACUAAGGUACCUGGUUUUAGCCACAGCCAC | 0.471 |
| GGGGAGCGGUGGCACUCGUGGGAGGGAGAGGACCCCCGCCCACAUCCUCCUUCCCCAGGACCUGAGCUCCCAGCAUCUGCAGACGACCCCCGCAGCCUUUCCCUCGGACC | 0.849 |
| UAAUCUGGGCCUAAGCUAGUGAGAGUAUGGAACAAUGGCCCAUAAGGACUCCUAAGCGCCGAAGCCAAGGAGCCUCCUCCCUUCCUGGUUCACCCCGCCCAAGGGACCUG | 0.518 |
| CAUUUGCUUGUUGUACAGUUUCUUGUAGUUUAUUUUUUAAUAGAUUUGAAUAAAACCUAAAUAGCGCAUCCCUUUGGUUCUGGUUUAAUGUACCAACAAGGCUUCCCUGA | 1.42 |
| AGAGCGGGUCGGUGGGAAACAGGGUGAACUUUAGCUUCCAUCAACAGCUCUGGUAGCAAAACCAGUCCCCUACCCCCUAGAGAAUGCAUCCGUUUCCCCACCUGAUAUGG | 0.41 |
